Results pooled from the literature.
Each line is one published result; not all experiments were run side by side. ± marks the error that the study gave.

The chains behind the UniProt entries cited, without tags or fusion partners. Residues count along the entry.
UniProt P45983, 1-384 isoform 3: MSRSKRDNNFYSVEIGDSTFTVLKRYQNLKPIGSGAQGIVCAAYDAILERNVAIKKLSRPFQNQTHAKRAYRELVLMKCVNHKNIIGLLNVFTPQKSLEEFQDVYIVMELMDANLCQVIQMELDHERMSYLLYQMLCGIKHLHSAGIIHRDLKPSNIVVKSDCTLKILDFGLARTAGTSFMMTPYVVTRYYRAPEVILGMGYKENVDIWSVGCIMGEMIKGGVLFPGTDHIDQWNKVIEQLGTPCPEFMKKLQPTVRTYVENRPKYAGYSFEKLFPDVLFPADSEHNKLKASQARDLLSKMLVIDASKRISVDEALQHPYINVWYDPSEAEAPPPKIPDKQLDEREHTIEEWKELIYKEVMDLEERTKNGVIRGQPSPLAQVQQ

COC(=O)[C@@]1(C)C=C(C(=O)Nc2cccc(C(=O)NC34CC(Nc5nccc(-c6cccnc6)n5)(C3)C4)c2)C(=O)CC1  remaining activity (MAPK8 (Homo sapiens, UniProt P45983); kinase activity, inhibitor; 0.0007527 µM, unit not given, with: 10 mM GSH; relative to: DMSO): 1.01
Nc1ncc(-c2ccc3ncnc(N4CCc5cc(F)c(Cl)cc54)c3c2)cn1  Tmax (CD1 mouse, brain; intraperitoneal, 50 mg/kg): 1 h
Cc1n[nH]c(C)c1CCOC(=O)c1cccc2c1oc(=O)n2C  half-life (human plasma): > 2.5 h
Cc1cc(SCc2sc(-c3cccc([S+](C)[O-])c3)nc2C)ccc1OCC(=O)O (stereo not drawn)  CC50 (HEK293T; 18 h): not toxic
COc1cc([C@@H]2c3cc4c(cc3C=C(C=O)[C@H]2C(=O)OCCCn2cnc3c(Cl)ncnc32)OCO4)cc(OC)c1OC  CC50 (HepG2; Alamar Blue; 48 h): 73.5 ± 11.6 µM
Cc1cc(SCc2sc(-c3ccccc3C)nc2C)ccc1OCC(=O)O  CC50 (HEK293T; 18 h): > 100 µM
Cc1ncsc1-c1ccc([C@H](C)NC(=O)[C@@H]2C[C@@H](O)CN2C(=O)[C@@H](NC(=O)CCCCCCC(=O)N2CCN(C[C@]3(C)CCC(c4ccc(Cl)cc4)=C(CN4CCN(c5ccc(C(=O)NS(=O)(=O)c6ccc(N[C@H](CCN7CCOCC7)CSc7ccccc7)c(S(=O)(=O)C(F)(F)F)c6)cc5)CC4)C3)CC2)C(C)(C)C)cc1  HCC development (STAM mice NASH-HCC model, liver; day 150, treated days 90-150): decreased
COc1cc([C@@H]2c3cc4c(cc3[C@](O)(C3(O)CCOCC3)[C@H]3COC(=O)[C@H]23)OCO4)cc(OC)c1OC  CC50 (HepG2; Alamar Blue; 48 h): > 100 µM
CC(C)n1nnc(-c2cc(O)cc(Nc3ncnn4ccc(CN5CCC(N)CC5)c34)c2)n1  total brain concentration (mouse, brain; subcutaneous, 30 mg/kg, 90 min): 0.06 ± 0.02 µM
Cc1cc(SCc2sc(-c3c(Cl)cccc3Cl)nc2C)ccc1OCC(=O)O  CC50 (HEK293T; 18 h): > 100 µM
CCOc1ccccc1Nc1nnc(SCC(=O)Nc2cc(F)ccc2F)s1  IFN-γ secretion (co-cultured human PBMCs; MucilAir airway epithelium; 5 µM, 48 h, with: anti-CD3/CD28): 790 ± 25 pg/mL
COC(=O)[C@@H]1C(c2nc3cc(Cl)ccc3o2)=Cc2cc3c(cc2[C@H]1c1cc(OC)c(OC)c(OC)c1)OCO3  CC50 (mouse splenocytes uninfected; Alamar Blue; 48 h): > 100 µM
COc1ccc(CC(=O)OCc2ccc(-n3cccn3)cc2)cc1F  Cmax (BALB/c mouse, plasma; intravenous, 2 mg/kg): 4440 ng/mL
Cc1cc(SCc2sc(-c3ccc4c(c3)OCO4)nc2C)ccc1OCC(=O)O  CC50 (HEK293T; 18 h): > 50 µM
CCCSc1nc(N[C@@H]2C[C@H]2c2ccc(F)c(F)c2)c2nnn([C@@H]3C[C@H](O)[C@@H](O)[C@H]3O)c2n1  AUC (rat, male, plasma; oral, 20 mg/kg/day ticagrelor, week 26): 16.3 µM·h

Excerpt of the above:
CC(C)n1nnc(-c2cc(O)cc(Nc3ncnn4ccc(CN5CCC(N)CC5)c34)c2)n1  total brain concentration (mouse, brain; subcutaneous, 30 mg/kg, 90 min): 0.06 ± 0.02 µM
